Results pooled from the literature.
Protocols differ between the studies behind these lines. “And” joins repeats or separate records; there may be more than shown. ± marks the error that the study gave.
F2: Prothrombin (F2, Homo sapiens, UniProt P00734)
prp N63Q: Ribosomal processing cysteine protease Prp (prp, Staphylococcus aureus, UniProt Q2FXS9, N63Q)
AVPR1A: Vasopressin V1a receptor (AVPR1A, Homo sapiens, UniProt P37288)
Sequence of UniProt P37288 (whole entry, looked up): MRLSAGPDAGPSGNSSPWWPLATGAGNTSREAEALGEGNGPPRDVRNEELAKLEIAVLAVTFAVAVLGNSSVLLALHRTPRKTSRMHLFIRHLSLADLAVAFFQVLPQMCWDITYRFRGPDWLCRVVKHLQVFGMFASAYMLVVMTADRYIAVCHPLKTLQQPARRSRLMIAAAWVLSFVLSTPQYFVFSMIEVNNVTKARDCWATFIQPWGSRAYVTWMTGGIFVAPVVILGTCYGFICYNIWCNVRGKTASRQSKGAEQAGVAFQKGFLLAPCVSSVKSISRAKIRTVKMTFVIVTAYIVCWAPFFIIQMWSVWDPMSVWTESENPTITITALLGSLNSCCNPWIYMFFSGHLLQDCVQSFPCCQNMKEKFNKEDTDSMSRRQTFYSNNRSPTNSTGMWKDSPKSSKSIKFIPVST
Sequence of UniProt Q96PF2 (whole entry, looked up): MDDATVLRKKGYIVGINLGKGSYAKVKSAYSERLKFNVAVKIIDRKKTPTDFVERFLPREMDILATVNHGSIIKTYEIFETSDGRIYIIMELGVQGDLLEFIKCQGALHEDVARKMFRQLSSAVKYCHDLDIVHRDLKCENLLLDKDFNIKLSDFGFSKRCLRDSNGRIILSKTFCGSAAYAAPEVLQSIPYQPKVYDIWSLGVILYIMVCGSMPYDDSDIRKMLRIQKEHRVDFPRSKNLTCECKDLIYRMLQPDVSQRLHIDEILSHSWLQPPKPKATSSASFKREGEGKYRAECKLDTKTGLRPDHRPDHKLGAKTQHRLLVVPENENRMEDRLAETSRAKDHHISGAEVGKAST
Sequence of UniProt P05067 (whole entry, looked up): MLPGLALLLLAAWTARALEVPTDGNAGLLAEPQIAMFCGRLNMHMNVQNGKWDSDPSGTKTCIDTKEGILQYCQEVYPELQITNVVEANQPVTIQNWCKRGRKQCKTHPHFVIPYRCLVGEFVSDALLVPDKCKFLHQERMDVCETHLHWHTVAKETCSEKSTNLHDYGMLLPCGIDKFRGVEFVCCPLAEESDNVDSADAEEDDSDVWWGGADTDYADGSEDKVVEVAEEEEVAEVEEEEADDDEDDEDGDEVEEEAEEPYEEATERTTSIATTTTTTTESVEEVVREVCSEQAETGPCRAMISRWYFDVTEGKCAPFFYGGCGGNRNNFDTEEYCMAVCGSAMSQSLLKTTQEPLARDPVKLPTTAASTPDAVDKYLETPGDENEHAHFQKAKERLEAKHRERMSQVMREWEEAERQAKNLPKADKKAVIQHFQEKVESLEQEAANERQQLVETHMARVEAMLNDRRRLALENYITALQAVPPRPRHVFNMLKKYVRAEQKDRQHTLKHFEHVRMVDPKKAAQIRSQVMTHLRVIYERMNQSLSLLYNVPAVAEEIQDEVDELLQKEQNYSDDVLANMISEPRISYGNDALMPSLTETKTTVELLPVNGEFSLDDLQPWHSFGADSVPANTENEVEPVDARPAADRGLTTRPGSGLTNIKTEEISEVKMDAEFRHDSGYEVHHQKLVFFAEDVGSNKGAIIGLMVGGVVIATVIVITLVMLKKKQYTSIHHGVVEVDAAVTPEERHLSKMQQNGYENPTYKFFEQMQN
Sequence of UniProt P08659 (whole entry, looked up): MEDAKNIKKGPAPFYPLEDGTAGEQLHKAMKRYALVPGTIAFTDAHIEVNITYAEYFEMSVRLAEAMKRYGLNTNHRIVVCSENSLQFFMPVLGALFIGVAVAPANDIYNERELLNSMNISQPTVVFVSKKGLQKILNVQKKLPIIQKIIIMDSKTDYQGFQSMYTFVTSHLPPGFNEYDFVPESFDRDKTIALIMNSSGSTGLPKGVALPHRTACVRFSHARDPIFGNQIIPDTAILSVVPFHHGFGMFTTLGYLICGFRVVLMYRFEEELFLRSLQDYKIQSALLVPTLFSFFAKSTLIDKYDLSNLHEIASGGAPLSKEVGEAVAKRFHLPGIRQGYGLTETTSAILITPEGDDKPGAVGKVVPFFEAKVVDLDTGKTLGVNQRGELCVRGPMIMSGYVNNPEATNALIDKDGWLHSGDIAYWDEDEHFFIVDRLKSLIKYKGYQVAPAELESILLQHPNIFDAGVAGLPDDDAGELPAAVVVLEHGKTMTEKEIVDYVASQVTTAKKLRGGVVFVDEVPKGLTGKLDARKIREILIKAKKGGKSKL
Sequence of UniProt Q04771 (whole entry, looked up): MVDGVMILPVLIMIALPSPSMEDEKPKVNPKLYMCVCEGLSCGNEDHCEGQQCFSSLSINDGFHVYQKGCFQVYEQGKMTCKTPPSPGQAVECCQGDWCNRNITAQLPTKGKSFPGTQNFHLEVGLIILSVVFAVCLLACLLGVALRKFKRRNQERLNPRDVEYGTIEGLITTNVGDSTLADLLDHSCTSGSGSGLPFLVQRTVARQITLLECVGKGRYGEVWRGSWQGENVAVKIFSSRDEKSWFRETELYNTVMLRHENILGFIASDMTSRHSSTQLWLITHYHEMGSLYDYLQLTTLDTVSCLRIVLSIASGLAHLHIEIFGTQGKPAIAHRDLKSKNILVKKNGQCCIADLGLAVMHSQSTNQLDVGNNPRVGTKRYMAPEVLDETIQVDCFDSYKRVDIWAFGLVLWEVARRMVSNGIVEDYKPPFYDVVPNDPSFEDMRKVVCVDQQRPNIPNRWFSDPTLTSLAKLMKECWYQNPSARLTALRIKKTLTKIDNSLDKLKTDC
Sequence of UniProt P08913 (whole entry, looked up): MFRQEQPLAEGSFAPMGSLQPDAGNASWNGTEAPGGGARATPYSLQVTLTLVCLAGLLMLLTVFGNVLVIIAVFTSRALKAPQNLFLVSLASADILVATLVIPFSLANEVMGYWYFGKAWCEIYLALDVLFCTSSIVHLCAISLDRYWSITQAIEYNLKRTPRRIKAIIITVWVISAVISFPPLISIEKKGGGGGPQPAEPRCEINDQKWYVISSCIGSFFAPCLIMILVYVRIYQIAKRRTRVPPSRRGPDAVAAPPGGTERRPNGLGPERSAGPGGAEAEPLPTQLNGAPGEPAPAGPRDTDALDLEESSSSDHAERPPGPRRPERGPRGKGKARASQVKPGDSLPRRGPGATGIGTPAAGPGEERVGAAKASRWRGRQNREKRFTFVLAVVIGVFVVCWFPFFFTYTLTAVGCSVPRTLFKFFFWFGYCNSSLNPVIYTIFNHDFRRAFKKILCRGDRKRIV
Sequence of UniProt P00811 (whole entry, looked up): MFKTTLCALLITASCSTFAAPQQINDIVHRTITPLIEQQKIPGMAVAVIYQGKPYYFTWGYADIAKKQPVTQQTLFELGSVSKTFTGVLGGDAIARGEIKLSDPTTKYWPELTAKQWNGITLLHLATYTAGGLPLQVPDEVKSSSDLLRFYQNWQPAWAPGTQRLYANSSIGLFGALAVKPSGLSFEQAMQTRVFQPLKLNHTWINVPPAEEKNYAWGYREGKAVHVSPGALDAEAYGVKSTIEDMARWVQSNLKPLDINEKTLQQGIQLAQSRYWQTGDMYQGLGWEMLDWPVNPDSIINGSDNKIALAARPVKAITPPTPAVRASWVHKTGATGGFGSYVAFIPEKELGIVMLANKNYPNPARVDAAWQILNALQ
Sequence of UniProt P97612 (whole entry, looked up): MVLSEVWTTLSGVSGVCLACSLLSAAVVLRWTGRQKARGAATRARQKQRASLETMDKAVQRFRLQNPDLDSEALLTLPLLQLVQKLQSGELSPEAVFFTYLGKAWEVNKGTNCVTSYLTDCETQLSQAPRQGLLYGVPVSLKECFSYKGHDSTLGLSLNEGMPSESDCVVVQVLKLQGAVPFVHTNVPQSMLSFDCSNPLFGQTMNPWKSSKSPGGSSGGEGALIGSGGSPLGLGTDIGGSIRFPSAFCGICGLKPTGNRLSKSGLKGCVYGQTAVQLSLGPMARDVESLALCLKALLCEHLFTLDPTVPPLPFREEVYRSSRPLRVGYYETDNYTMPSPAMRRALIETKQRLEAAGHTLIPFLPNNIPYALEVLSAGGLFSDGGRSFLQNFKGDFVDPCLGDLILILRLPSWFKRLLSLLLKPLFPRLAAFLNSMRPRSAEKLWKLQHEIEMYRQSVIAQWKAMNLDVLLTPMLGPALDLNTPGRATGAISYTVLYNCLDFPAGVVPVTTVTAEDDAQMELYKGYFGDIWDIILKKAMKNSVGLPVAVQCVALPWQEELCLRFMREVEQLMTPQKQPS
Sequence of UniProt Q0VDG4 (whole entry, looked up): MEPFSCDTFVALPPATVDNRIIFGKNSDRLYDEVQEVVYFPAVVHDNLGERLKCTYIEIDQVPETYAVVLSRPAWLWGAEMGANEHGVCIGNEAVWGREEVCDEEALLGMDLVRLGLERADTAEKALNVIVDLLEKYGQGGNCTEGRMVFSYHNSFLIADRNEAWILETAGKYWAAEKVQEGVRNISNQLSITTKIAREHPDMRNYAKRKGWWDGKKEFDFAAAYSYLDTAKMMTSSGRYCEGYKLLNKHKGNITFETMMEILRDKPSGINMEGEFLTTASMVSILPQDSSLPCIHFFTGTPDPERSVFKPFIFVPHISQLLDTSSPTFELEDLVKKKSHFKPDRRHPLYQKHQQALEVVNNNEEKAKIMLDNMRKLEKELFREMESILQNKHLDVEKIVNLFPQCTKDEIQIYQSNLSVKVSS
Sequence of UniProt P48730 (whole entry, looked up): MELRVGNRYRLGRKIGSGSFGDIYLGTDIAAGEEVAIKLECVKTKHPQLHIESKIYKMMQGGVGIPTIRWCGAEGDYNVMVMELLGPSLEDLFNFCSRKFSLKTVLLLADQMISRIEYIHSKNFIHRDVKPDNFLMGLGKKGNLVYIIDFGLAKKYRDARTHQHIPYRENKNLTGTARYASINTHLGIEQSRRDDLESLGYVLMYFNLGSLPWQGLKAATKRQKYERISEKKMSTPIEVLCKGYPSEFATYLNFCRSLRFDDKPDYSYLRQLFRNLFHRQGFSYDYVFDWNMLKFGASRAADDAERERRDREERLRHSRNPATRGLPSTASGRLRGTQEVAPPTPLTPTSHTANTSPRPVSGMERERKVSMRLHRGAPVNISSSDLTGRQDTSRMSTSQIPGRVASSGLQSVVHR

O=C(Nc1ccc2c(c1)B(O)OC2)c1cccc(OCc2c(Cl)cccc2Cl)c1 — inhibition (F2; enzyme activity; 50 µM, added: substrate 50 µM): ≤ 10%
CC(=O)NC[C@H]1[C@H](O)[C@H](O)[C@@H]2[C@H](O)C[C@@H](CO)N21 — inhibition (β-N-acetylglucosaminidase; enzyme activity, inhibitor, colorimetric; Canavalia ensiformis; 2.58 nM, added: p-nitrophenyl GlcNAc substrate): 77% and 77.6%
COc1ccc(N2C(=O)N(c3c(C)cccc3Cl)Cc3cnc(Nc4ccc(C5CCN(C)CC5)cc4OC)nc32)nc1 — inhibition (ACVR1 (Homo sapiens, UniProt Q04771); kinase activity, inhibitor; 0.5 µM, ALK2): -46%
CN1CCc2nc(C(=O)N[C@@H]3C[C@@H](C(=O)N(C)C)CC[C@@H]3NC(=O)C(=O)Nc3ccc(Cl)cn3)sc2C1 — inhibition (prp N63Q; enzyme activity, inhibitor; 10 µM, prp 21.4 nM, added: FITC peptide substrate 0.5 µM): 36.2 ± 7.4%
O=c1ccc2ccccc2o1 — inhibition (AVPR1A; agonist radioligand binding; 10 µM, SafetyScreen44): -11.4%
CC[C@H](C)[C@H](NC(=O)[C@@H](NC(=O)[C@H](N)Cc1ccccc1)C(C)C)C(=O)N[C@@H](C)C(N)=O — inhibition (APP (Homo sapiens, UniProt P05067); amyloid-beta aggregation, thioflavin T fluorescence; 1.0 µM, 120 h, added: 2 µM amyloid-beta): 74.6%
CNC(=O)[C@@H](NC(=O)[C@H](CC(C)C)[C@H](O)C(=O)NO)C(C)(C)C — inhibition (prp N63Q; enzyme activity, inhibitor; 10 µM, prp 21.4 nM, added: FITC peptide substrate 0.5 µM): 41.5 ± 11.9%
COc1cc(Nc2ncc(F)c(Nc3ccc4c(n3)NC(=O)C(C)(C)O4)n2)cc(OC)c1OC — inhibition (TRPM6 (Homo sapiens, UniProt Q9BX84); KINOMEscan; 10 µM): 0%
O=C(CNC(=O)c1ccccc1)OC(C(=O)Nc1cc(C(F)(F)F)ccc1Cl)c1ccccc1 (stereo not shown) — inhibition (Beta-lactamase (ampC, Escherichia coli K-12, UniProt P00811); enzyme activity, inhibitor; 10 µM, added: CENTA substrate): 0%
FC(F)(F)c1cccc(Nc2nc(NCCOc3ccccc3)nc3[nH]cnc23)c1 — inhibition (CSNK1D (Homo sapiens, UniProt P48730); Z'-LYTE or Adapta; 5 µM): 9%
COc1cccc(C(=O)Nc2ccc3c(c2)B(O)OC3)c1 — inhibition (F2; enzyme activity; 50 µM, added: substrate 50 µM): ≤ 10%
O=[N+]([O-])C(Br)(CO)CO — inhibition (Luciferin 4-monooxygenase (Photinus pyralis, UniProt P08659); luciferase luminescence, inhibitor; cell-free; 50 µM, counter-screen): 12.8%
Cn1cccc1-c1cccnc1 — inhibition (ADRB2 (Homo sapiens, UniProt P07550); binding; 50 µM): 3.26%
NNCCc1c[nH]c2ccccc12 — inhibition (Secernin-3 (Homo sapiens, UniProt Q0VDG4); probe labelling, competitive ABPP-SILAC; HEK-293T cell lysate; 1 µM, 30 min, 25 °C): ~50%
CN(c1ccc2c(c1)B(O)OC2)S(=O)(=O)c1ccc(Cl)cc1 — inhibition (F2; enzyme activity; 50 µM, added: substrate 50 µM): ≤ 10%
O=C(Nc1cccnn1)N1CCC(=Cc2cccc(Oc3ccc(C(F)(F)F)cn3)c2)CC1 — inhibition (TSSK2 (Homo sapiens, UniProt Q96PF2); kinase activity, inhibitor; 10 µM, human, added: CHKtide): -8%
CC[C@H](C)[C@H](NC(=O)[C@H]([C@@H](C)CC)N(C)C(C)=O)C(=O)N[C@H](C(=O)N[C@@H](CC(C)C)C(=O)[C@@]1(C)CO1)[C@@H](C)O — inhibition (prp N63Q; enzyme activity; 10 µM, 21.4 nM enzyme dimer, added: 0.5 µM FITC-labelled peptide substrate): 38.5 ± 7.3%
CC(C)N1CCC[C@H]1CNC(=O)c1cn(C2CCCC2)c(=O)c2c1c1ccccc1n2C — inhibition (sodium channel site 2 (rat); radioligand binding; 10 µM): 49%
CN(C)C(=O)COC(=O)Cc1ccc(OC(=O)c2ccc(NC(=N)N)cc2)cc1 — inhibition (prp N63Q; enzyme activity, inhibitor; 10 µM, prp 21.4 nM, added: FITC peptide substrate 0.5 µM): -6 ± 8%
C[C@H]1N=C(c2ccccc2F)c2cc(Br)ccc2-n2cnc(C(=O)O)c21 — inhibition (GABA-A receptor GABA site; binding; 10 µM): 34.6 ± 10.9%
CN1CCN(c2cc(-c3ccncc3)c(-c3ccc4ccccc4c3)nn2)CC1 — inhibition (TACR2 (Homo sapiens, UniProt P21452); antagonist, FLIPR; 10 µM): 19.5%
CC(=O)N[C@@H](CC(C)C)C(=O)N[C@@H](CC(C)C)C(=O)N[C@H](C=O)CCCNC(=N)N — inhibition (prp N63Q; enzyme activity, inhibitor; 10 µM, prp 21.4 nM, added: FITC peptide substrate 0.5 µM): 9.49 ± 39.8%
COCc1c(-c2cc3cc(C)cc(OC)c3s2)c2c(N)ncnn2c1CN1CCNC(=O)C1 — inhibition (GABA transporter; radioligand binding; 10 µM): 28%
C[C@@H](NC(=O)[C@@H](N)Cc1ccc(O)cc1)C(=O)NCC(=O)N[C@@H](Cc1ccccc1)C(=O)N(C)CCC[C@@]1(c2ccc(F)cc2)OCc2cc(C#N)ccc21 — inhibition (ADRA2A (Homo sapiens, UniProt P08913); 10 µM): < 50%
O=[N+]([O-])c1ccc(S(=O)(=O)N2CCN(c3ccnc4cc(Cl)ccc34)CC2)c([N+](=O)[O-])c1 — inhibition (prp N63Q; enzyme activity; 10 µM, 21.4 nM enzyme dimer, added: 0.5 µM FITC-labelled peptide substrate): 6 ± 12.4%
CN(CCN1CCC(OC(=O)Nc2ccccc2-c2ccccc2)CC1)C(=O)c1ccc(CN2CCC(C(N)=O)CC2)cc1 — inhibition (GABA receptor non-selective; radioligand binding; 1 µM, added: [3H]GABA 10 nM): -5%
c1ccc(C(NCCNC(c2ccccc2)c2ccccc2)c2ccccc2)cc1 — inhibition (Ca2+-ATPase, pig skeletal muscle; enzyme activity; 10 µM, Eurofins selectivity panel): -15%
C[C@@]1(c2cc(-c3cncnc3)c(F)cc2F)CCSC(N)=N1 — inhibition (prp N63Q; enzyme activity, inhibitor; 10 µM, prp 21.4 nM, added: FITC peptide substrate 0.5 µM): 17.3 ± 8.9%
O=C(Nc1ccc2c(c1)B(O)OC2)c1cccc(OCc2ccccc2)c1 — inhibition (F2; enzyme activity; 50 µM, added: substrate 50 µM): ≤ 10%
C[C@H](NC(=O)[C@@H](O)c1cc(F)cc(F)c1)C(=O)N[C@@H]1C(=O)N(C)c2ccccc2-c2ccccc21 — inhibition (prp N63Q; enzyme activity; 10 µM, 21.4 nM enzyme dimer, added: 0.5 µM FITC-labelled peptide substrate): 28.2 ± 4.8%
O=C(Nc1cnccc1Cl)N1CCN(Cc2ccc3c(c2)OC(F)(F)O3)CC1 — inhibition (Faah (Rattus norvegicus, UniProt P97612); probe labelling, inhibitor, competitive ABPP with azido-FP probe; rat brain soluble fraction; 10 µM): 99.6%
Nc1ccc2c(c1)B(O)OC2 — inhibition (F2; enzyme activity; 50 µM, added: substrate 50 µM): ≤ 10%
CCCCCn1c2ccccc2c2cc(C(=O)NCC3CCN(CC(=O)NC(C)(C)C)CC3)ccc21 — inhibition (CACNA1I (Homo sapiens, UniProt Q9P0X4); calcium current, blocker, whole-cell voltage clamp; 3 µM): 42.5 ± 5%
CN(C(=O)n1cnc(-c2ccc[n+]([O-])c2)c1)C1CCCCC1 — inhibition (AVPR1A; radioligand binding; 10 µM): -5%

Repeated from above:
CC(=O)N[C@@H](CC(C)C)C(=O)N[C@@H](CC(C)C)C(=O)N[C@H](C=O)CCCNC(=N)N — inhibition (prp N63Q; enzyme activity, inhibitor; 10 µM, prp 21.4 nM, added: FITC peptide substrate 0.5 µM): 9.49 ± 39.8%
O=C(Nc1ccc2c(c1)B(O)OC2)c1cccc(OCc2c(Cl)cccc2Cl)c1 — inhibition (F2; enzyme activity; 50 µM, added: substrate 50 µM): ≤ 10%
O=C(Nc1ccc2c(c1)B(O)OC2)c1cccc(OCc2ccccc2)c1 — inhibition (F2; enzyme activity; 50 µM, added: substrate 50 µM): ≤ 10%
